Results gathered from unrelated publications.
Numbered parts are unrelated; each lists some results of a single study.
Sequence of UniProt Q96PN8 (whole entry, looked up): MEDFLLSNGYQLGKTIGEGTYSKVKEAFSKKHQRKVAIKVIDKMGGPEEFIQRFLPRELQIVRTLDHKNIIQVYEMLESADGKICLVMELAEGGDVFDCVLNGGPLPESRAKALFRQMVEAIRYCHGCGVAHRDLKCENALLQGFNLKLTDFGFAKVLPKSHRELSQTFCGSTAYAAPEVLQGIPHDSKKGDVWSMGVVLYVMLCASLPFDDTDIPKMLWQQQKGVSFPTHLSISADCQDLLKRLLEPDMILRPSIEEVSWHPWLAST
Sequence of UniProt P22607 (whole entry, looked up): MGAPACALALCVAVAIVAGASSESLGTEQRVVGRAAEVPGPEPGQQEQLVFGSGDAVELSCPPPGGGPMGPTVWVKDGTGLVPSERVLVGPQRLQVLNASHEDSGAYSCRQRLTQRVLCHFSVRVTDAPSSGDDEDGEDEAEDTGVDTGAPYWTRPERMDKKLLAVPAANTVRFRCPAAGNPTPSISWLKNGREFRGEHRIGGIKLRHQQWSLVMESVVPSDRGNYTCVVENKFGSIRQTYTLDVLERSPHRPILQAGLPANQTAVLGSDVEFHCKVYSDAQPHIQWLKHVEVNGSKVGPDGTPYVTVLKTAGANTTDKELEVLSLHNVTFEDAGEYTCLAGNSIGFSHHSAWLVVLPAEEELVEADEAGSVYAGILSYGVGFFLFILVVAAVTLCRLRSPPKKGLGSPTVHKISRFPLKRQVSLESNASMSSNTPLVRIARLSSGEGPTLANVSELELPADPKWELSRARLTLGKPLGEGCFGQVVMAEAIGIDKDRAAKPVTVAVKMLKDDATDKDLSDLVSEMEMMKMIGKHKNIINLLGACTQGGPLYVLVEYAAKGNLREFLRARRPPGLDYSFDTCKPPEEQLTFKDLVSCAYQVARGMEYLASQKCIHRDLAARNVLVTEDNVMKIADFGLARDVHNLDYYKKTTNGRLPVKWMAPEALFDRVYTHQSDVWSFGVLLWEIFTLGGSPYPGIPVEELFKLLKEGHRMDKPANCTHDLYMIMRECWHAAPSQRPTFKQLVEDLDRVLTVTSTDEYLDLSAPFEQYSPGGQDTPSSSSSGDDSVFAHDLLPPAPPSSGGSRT
Sequence of UniProt P48736 (whole entry, looked up): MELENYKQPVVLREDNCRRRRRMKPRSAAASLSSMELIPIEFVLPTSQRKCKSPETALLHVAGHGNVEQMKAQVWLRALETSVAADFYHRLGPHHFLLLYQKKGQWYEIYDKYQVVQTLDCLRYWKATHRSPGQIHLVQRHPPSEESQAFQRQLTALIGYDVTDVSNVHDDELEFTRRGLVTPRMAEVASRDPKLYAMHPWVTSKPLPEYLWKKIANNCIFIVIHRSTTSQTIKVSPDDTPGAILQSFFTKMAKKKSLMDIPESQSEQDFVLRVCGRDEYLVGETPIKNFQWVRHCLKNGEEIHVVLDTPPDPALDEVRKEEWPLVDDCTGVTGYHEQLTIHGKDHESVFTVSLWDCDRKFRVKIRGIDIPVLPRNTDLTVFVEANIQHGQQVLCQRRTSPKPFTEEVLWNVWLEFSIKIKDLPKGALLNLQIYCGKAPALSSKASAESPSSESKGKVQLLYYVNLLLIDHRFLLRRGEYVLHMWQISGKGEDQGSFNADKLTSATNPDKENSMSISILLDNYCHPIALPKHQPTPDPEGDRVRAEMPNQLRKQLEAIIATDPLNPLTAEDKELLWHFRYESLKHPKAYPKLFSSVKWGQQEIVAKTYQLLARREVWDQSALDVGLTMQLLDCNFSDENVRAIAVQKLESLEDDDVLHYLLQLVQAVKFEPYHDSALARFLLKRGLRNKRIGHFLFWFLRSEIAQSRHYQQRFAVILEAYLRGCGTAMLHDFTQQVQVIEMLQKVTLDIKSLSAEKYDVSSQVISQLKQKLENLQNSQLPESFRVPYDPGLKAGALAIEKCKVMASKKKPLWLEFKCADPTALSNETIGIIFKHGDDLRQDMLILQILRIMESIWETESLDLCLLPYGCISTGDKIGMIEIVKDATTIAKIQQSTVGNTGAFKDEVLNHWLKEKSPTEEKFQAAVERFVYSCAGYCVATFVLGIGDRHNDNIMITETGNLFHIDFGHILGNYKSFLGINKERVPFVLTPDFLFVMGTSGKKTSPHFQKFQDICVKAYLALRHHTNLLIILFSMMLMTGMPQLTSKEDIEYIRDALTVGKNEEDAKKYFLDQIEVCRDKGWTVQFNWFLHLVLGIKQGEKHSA
Sequence of UniProt O15530 (whole entry, looked up): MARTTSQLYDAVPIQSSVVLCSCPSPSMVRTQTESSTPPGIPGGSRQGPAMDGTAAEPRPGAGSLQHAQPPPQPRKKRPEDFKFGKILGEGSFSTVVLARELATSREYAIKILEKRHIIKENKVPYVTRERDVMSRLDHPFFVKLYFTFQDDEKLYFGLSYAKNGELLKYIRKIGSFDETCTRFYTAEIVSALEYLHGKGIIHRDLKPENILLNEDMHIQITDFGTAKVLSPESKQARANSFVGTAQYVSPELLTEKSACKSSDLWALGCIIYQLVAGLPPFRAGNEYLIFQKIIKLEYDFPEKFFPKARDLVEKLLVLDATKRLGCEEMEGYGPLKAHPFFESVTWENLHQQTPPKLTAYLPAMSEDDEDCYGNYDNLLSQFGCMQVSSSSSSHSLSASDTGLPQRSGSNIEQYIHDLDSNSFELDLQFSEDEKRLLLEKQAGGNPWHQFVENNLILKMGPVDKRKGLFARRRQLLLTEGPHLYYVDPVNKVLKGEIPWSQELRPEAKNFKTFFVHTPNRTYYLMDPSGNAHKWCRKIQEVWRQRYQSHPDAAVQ
Sequence of UniProt Q9Y2U5 (whole entry, looked up): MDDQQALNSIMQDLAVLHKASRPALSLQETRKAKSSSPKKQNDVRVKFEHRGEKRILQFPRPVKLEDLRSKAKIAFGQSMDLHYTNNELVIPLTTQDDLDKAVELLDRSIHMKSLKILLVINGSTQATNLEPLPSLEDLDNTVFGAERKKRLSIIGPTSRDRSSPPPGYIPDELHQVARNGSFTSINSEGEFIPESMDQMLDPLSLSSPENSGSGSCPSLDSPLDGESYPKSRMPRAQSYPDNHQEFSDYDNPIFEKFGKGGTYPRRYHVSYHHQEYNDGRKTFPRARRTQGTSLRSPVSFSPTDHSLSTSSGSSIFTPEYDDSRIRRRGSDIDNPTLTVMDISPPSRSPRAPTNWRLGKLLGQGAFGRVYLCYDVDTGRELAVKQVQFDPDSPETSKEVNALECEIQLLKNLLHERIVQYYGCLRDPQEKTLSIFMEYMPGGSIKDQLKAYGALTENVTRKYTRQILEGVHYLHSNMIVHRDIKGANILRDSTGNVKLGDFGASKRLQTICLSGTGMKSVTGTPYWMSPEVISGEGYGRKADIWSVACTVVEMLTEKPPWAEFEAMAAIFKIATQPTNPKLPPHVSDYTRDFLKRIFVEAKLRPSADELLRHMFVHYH
Sequence of UniProt Q12866 (whole entry, looked up): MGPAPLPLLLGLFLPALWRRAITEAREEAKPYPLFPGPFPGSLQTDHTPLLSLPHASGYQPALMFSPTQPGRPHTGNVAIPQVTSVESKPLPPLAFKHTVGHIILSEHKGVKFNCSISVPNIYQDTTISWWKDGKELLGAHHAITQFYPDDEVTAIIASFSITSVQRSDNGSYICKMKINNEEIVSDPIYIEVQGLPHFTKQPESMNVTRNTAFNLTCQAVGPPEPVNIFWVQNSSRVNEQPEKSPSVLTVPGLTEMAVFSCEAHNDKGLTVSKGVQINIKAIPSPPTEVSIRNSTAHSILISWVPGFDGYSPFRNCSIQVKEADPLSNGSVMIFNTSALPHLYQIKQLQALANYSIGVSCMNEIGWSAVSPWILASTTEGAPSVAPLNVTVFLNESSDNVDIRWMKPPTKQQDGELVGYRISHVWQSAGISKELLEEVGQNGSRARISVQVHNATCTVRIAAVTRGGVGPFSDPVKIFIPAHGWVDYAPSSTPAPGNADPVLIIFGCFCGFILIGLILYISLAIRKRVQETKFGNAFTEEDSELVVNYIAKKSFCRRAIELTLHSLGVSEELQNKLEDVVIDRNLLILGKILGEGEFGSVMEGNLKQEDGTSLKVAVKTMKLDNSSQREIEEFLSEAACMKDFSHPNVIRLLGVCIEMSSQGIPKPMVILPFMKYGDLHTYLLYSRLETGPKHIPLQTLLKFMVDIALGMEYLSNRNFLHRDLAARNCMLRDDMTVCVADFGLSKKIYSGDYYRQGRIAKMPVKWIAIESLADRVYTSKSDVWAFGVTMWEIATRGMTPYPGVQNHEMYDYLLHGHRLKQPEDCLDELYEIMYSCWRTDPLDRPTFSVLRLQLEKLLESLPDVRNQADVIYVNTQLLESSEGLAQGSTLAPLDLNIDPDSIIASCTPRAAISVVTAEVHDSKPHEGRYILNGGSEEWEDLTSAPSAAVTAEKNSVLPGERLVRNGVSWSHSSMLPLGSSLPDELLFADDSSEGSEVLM

Study 1
SMILES: Cc1nc(Nc2ncc(C(=O)Nc3c(C)cccc3Cl)s2)cc(N2CCN(CCO)CC2)n1
Observed: enzyme activity
Action: inhibitor
Concentration: 0.5 µM
Reference: control
| target | remaining activity |
| --- | --- |
| Ephrin type-A receptor 3 (EPHA3, Homo sapiens, UniProt P29320) | 3.46% |
| Tyrosine-protein kinase Mer (MERTK, Homo sapiens, UniProt Q12866) | 103% |
| Fibroblast growth factor receptor 3 (FGFR3, Homo sapiens, UniProt P22607) | 86.2% |

Study 2
Target: Ras GTPase-activating protein-binding protein 1, RRM domain (G3BP1, Homo sapiens, UniProt Q13283)
Sequence of UniProt Q13283 (whole entry, looked up): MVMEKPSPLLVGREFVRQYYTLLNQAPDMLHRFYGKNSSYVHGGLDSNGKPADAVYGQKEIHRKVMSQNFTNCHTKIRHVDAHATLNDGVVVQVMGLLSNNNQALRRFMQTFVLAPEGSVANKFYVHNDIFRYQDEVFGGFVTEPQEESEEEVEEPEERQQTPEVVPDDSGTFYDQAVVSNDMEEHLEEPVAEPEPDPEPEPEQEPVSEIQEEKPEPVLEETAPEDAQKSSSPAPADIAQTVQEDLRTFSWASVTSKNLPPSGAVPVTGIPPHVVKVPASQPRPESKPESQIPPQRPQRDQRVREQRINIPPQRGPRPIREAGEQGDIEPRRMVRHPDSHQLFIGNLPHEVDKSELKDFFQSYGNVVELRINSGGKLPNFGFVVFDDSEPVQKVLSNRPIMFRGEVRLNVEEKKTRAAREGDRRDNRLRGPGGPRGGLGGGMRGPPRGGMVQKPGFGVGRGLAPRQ
Method: RNA Bind-n-Seq
Molecule type: RNA
Medium: in vitro
Concentration: 1 µM
Notes: whole 134-nt RNA, ends assumed
With: 150 mM KCl
Reference: input library
Direction: higher = stronger binding
Constant ends, left off below: GGGAGUUCUACAGUCCGACGAUC … UGGAAUUCUCGGGUGUCAAGG
| Strand | log2 enrichment |
| --- | --- |
| GUCCUGUGCUACACAUCGUAUGUACCGAAUCGGGGUUUGGGGAAAGGGGAAAAAGGGGAAAGUAUUAUGUUACGCCGUUCGGAUCUGCAC | 1.4 |
| CCUGUGCUACACAUCGUAUGUACCGAAUCGGGCCCCCCGGCCCCCCGGGGCCCCCCGGGGAAAGUAUUAUGUUACGCCGUUCGGAUCUGC | -0.528 |
| GUCCUGUGCUACACAUCGUAUGUACCGAAUCGGGAAAAAGGAAAAAGGGGAAAAAGGGAAAGUAUUAUGUUACGCCGUUCGGAUCUGCAC | 0.0985 |
| GGAUCAAAGCAAGUUGGAGAAACAUCAGCACCUGGAGACACCUUAGAUGGCACACCUCGUACUCUCAAUACUGUCUUUGAUUUCCCACCA | -0.0485 |
| AGUCCUGUGCUACACAUCGUAUGUACCGAAUCGGGAAAGGGUUUGGGUUUUUUUGGGAAAGUAUUAUGUUACGCCGUUCGGAUCUGCACU | 0.197 |
| GUCCUGUGCUACACAUCGUAUGUACCGAAUCGGGGUUUGGGGAGGGGAAAAAAAGGGGAAAGUAUUAUGUUACGCCGUUCGGAUCUGCAC | 0.725 |
| UGGGAGGUGGAUUUUGUUUAUUUUUUUAGAUCAUUUCCAGGGGUGGGAAUUUUUUUUUAAUAUGUGUCAUGAAUAAAGUUGUUUUUGAAA | 2.37 |
| ACCAUGCAGGUGGGCAUCUUUGGGAAGUGGGGCAAGGGGGGGAUAGGGAGGGAGGUAACACUUUGGGAACAGGUGGUCCCAGGUCGUUUC | 0.754 |

Study 3
Target: Interferon regulatory factor 7, full length, phosphomimetic (IRF7, Homo sapiens, UniProt Q92985, residues 1-503, S101K/S471D/S472D/S475D/S476D/S477D/S483D/S484D/S487D)
Method: protein-binding microarray
Molecule type: double-stranded DNA, one strand shown
Medium: in vitro
Concentration: 250 nM
Notes: 60-bp whole probe
With: salmon DNA 0.4 mg/ml
Reference: random background probes
Direction: higher = stronger binding
Constant ends, left off below: GCCTAGCAC … GTCTTGATTCGCTTGACGCTGCTG
Construct (chain): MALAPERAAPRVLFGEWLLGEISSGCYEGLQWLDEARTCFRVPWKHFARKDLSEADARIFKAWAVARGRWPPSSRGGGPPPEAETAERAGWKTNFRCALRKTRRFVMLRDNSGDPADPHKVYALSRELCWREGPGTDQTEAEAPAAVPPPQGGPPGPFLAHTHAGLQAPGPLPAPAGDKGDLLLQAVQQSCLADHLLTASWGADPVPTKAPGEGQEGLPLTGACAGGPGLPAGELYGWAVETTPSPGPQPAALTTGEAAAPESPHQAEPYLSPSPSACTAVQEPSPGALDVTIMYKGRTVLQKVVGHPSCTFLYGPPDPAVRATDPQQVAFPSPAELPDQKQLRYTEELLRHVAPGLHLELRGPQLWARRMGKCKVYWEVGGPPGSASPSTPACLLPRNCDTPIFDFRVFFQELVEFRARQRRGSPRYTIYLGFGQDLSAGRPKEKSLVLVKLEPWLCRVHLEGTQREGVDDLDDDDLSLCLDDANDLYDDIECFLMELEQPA
| Strand | log fluorescence [z-score] |
| --- | --- |
| TTAGGACTAGGTATCGGTTAGTGCTAG | 1.35 |
| TCAGAATTACCTCTGGAACTGTGCTAG | -0.456 |
| TCACTTCTAGACTTCTCACTGTGCTAG | 0.826 |
| GAGGGGGCAGGGACTCAGGGGTGCTAG | 1.5 |
| GACGGAATCCTTTTCCTGACGTGCTAG | 0.451 |
| CCCTATTTAAGGCTAGGCACGTGCTAG | 1.59 |
| TTAGGTATCGGTTTCGGATAGTGCTAG | 8.77 |
| TTAGGTTTCAACTTTCGGTTAGTGCTA | 3.21 |

Study 4
Compound: CN(C(=O)c1ccccc1)c1cc(N(C)c2ccc3c(c2)CCc2ccc(C(=O)NCCN4CCOCC4)cc2C3=O)ccc1F
Method: competition with immobilised ligand
Concentration: 1 µM
| target | observed | remaining binding [%] |
| --- | --- | --- |
| Phosphatidylinositol 4,5-bisphosphate 3-kinase catalytic subunit gamma isoform (PIK3CG, Homo sapiens, UniProt P48736) | cell-free assay | 77 |
| 3-phosphoinositide-dependent protein kinase 1 (PDPK1, Homo sapiens, UniProt O15530) | cell-free assay | 100 |
| Mitogen-activated protein kinase kinase kinase 2 (MAP3K2, Homo sapiens, UniProt Q9Y2U5) | cell-free assay | 92 |
| Testis-specific serine/threonine-protein kinase 3 (TSSK3, Homo sapiens, UniProt Q96PN8) | cell-free assay | 100 |
| Cyclin-dependent kinase 3 (CDK3, Homo sapiens, UniProt Q00526) | cell-free assay | 100 |
| Tyrosine-protein kinase ABL1, phosphorylated (ABL1, Homo sapiens, UniProt P00519, E255K) | binding | 92 |
